Assay results from different studies.
Parts stem from different laboratories: compare values within a part only. Positions count from the first letter of the parent shown.

Series 1 — technique: RNA Bind-n-Seq; form: RNA; medium: in vitro; tested at: 1 µM; setting: whole 134-nt RNA, ends assumed; together with: 150 mM KCl; reference: input library; reading: higher = stronger binding
Target: Ras GTPase-activating protein-binding protein 1, RRM domain (G3BP1, Homo sapiens, UniProt Q13283)
Sequence of UniProt Q13283 (whole entry, looked up): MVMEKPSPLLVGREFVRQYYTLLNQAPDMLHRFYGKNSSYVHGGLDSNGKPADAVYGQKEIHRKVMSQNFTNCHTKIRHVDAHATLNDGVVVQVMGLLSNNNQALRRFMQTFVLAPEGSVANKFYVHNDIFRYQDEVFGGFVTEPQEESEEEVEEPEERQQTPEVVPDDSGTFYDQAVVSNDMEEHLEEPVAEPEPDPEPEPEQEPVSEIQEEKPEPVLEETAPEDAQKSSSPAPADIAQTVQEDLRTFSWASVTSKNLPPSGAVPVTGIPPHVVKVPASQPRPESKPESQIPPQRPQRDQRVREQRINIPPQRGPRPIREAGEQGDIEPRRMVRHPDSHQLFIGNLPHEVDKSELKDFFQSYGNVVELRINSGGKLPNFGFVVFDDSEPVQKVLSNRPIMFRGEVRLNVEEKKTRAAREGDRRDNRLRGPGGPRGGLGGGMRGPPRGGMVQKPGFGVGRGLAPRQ
Sequence	log2 enrichment
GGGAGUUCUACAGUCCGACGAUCAGUCCUGUGCUACACAUCGUAUGUACCGAAUCGGUUUUUGGUUUUUGGGGUUUUUGGGAAAGUAUUAUGUUACGCCGUUCGGAUCUGCACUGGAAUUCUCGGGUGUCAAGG	-0.026
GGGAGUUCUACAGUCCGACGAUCCCUCAAGUCCUGUGCUACACAUCGUAUGUACCGAAUCGGUUUGGUGGUUUGGAAAGUAUUAUGUUACGCCGUUCGGAUCUGCACUUCCAGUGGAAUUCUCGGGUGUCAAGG	-0.268
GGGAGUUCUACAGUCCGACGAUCACCAUGCAGGUGGGCAUCUUUGGGAAGUGGGGCAAGGUGGGGAUAGGGAGGGGGGUAACACUUUGGGAACAGGUGGUCCCAGGUCGUUUCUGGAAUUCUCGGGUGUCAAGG	-0.409
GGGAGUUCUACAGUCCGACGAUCGUCCUGUGCUACACAUCGUAUGUACCGAAUCGGGAAAAAAGGAAAAAAGGGAAAAAAGGAAAGUAUUAUGUUACGCCGUUCGGAUCUGCAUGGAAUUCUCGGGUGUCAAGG	0.054
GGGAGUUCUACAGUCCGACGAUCUCCUGUGCUACACAUCGUAUGUACCGAAUCGGGAAAAAAAGGGUUUUUUUGGGUUUGGGAAAGUAUUAUGUUACGCCGUUCGGAUCUGCAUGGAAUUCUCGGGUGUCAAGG	-0.198
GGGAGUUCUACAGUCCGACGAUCUAACUUUAGAGGAGGAUCUGAUGGAUAUGGCAGUGGACGUGGAUUUGGGGAUGGCUAUAAUGGGUAUGGAGGAGGACUUGGAGGUGGCAAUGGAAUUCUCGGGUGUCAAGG	-0.166
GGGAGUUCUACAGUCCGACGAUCUAACUUUAGAGGAGGAUCUGAUGCAUAUGGCAGUGGACGUGGAUUUGGGGAUGGCUAUAAUGGGUAUGGAGGAGGACCUGGAGGUGGCAAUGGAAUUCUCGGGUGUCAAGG	-0.889
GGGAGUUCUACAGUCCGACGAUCCCUGUGCUACACAUCGUAUGUACCGAAUCGGGCCCCCCGGGGCCCCCCGGGGCCCCCCGGAAAGUAUUAUGUUACGCCGUUCGGAUCUGCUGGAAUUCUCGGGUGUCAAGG	-0.653
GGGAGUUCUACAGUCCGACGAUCCACAGACAACACGCACCCGCACAGACACAGAGGGAAGGGGUUGGGAUGGGGACAGGGUGCACAGCAGGGCGGGGUAGGACCCCAGCCCCUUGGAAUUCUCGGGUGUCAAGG	-0.166

Series 2 — technique: aptamer microarray, sandwich; form: DNA with 2'F-ANA; medium: in vitro; tested at: 200 nM; together with: Cy3 exosite-II aptamer, 400 nM; reading: higher = stronger binding; sequence: GGTTGGTGTGGTTGG
Target: Prothrombin, mature alpha-thrombin (F2, Homo sapiens, UniProt P00734)
Setting: whole 15-mer aptamer, many near background
Modification	mean fluorescence intensity
2'F-ANA at 1 2 3 5 6 10 11 13 14	50.6 a.u.
2'F-ANA at 1 3 4 5 6 7 10 11 12 13 14	50.4 a.u.
2'F-ANA at 1 4 6 7 8 9 13 14 15	51.3 a.u.
2'F-ANA at 4 5 8 10 12	47.9 a.u.
2'F-ANA at 1 2 3 5 7 9 10 13 14 15	43.5 a.u.
2'F-ANA at 1 2 8 9 10 11 12 15	64.7 a.u.
2'F-ANA at 2 4 5 6 7 9 11 13 14 15	52.8 a.u.
2'F-ANA at 1 2 3 4 9 10 11 12 14	50.3 a.u.
2'F-ANA at 1 2 4 5 7 13	50.7 a.u.
2'F-ANA at 1 2 3 5 6 7 8 11 12 14 15	50.4 a.u.
2'F-ANA at 2 3 4 5 6 8 14	53.8 a.u.
2'F-ANA at 3 4 5 6 7 8 11 14 15	53.6 a.u.
2'F-ANA at 1 6 7 8 10 11 13 14 15	53.7 a.u.
2'F-ANA at 1 2 4 5 6 8 10 11 12 14 15	75.7 a.u.
2'F-ANA at 1 4 5	60.6 a.u.
2'F-ANA at 2 3 4 5 6 7 8 10 11 12 13 14 15	52.8 a.u.
2'F-ANA at 2 3 4 6 9 10 13 14	149 a.u.
2'F-ANA at 3 7 15	1150 a.u.
2'F-ANA at 1 2 3 4 5 7 11 12 13	70.7 a.u.
2'F-ANA at 1 3 4 11 13 14	69.1 a.u.
2'F-ANA at 3 4 6 7 9	577 a.u.
2'F-ANA at 2 3 5 6 7 14 15	49.1 a.u.

Series 3 — technique: RNA Bind-n-Seq; form: RNA; medium: in vitro; tested at: 365 nM; reference: no-protein control; reading: higher = stronger binding
Target: RNA binding protein fox-1 homolog 2, RRM domain, GST-SBP tag (RBFOX2, Homo sapiens, UniProt O43251-10, residues 100-194)
Setting: natural RNA segment, single round, ends assumed
Target sequence (chain): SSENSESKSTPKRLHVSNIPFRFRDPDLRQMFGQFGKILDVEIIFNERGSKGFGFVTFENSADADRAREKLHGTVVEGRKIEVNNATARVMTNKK
Sequence	RBNS enrichment (R)
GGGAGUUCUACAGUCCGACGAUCGAUCAGAAUAAUUAUCACAGGAACUUAAAUGUUAAGCCAUUAGCAUAGAAAAACUGUUCUCAGUUUUAUUUUUACCUAACACUAACAUGAGUAACCUAAGGGAAGUGCUGUGGAAUUCUCGGGUGCCAA	0.35
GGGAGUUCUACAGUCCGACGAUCCCUUGUGCUUCGGUUUCUAAGGGCCCUGUGGUGUGCAGUGAGCUCCCUUCCCGGCACGUGGAUUUUUUUUUUCAGUUUGUUAGAAGCCAGUGUAUGUCUUAAGCCUCUGCUGGAAUUCUCGGGUGCCAA	0.522
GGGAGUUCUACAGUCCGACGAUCACGUGGUAUUCCCCAGCGGUAGCCUGGAGGAAACUGUGCAAGCUGUGCAGCCCUCUAGUCAAUCACCAGUCCGGGAGUCAGGUUGUACUGAGUAGCUGGCCACGGAGGCUUGGAAUUCUCGGGUGCCAA	0.226
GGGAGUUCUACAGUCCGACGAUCUAAACCAGACUCACUUUUCUGAAAAAUCUCCAUUGUUGAGGAGAGGCUGCUCAAUCGACACCCCGAGUUCUCAUGACUGGGAAGAUAGUUUUCUUCAGGUGUCAAUGGCGUGGAAUUCUCGGGUGCCAA	0.625
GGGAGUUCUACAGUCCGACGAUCGACACCUUGAGUCUGGGUGAGUUGCUGCUGGCUGAGCCCUCCUGGCAGGCAGGGAGAGAAGACGCCUGGGCCUCUCCAUUGUUUGUUUCCCAGGGUGAUUUCCUCAGUGCUGGAAUUCUCGGGUGCCAA	1.36
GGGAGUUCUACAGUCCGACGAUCUAAAAUUUCCCCCAUGGAAAUCACUCUCCUGUUGACUAUUUCCAGAGCUCUAGGUGUUUAGGCAGCGUGUGGUGUCUGAGAGGCCAUAGCGCCAUCAUGGGCUGAUUUUUUGGAAUUCUCGGGUGCCAA	0.447
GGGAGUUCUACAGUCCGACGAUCUGGGGUUGGGGGUGGAGGUCUAGAGGUGAGCUCAGAAACCUACUGUUAACCAACACCCCCAAGUGACUGACACAGGUGGUCUAAAAAUUACUUUUCUAGAAACACCAUUCUGGAAUUCUCGGGUGCCAA	0.399
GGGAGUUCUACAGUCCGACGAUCUGAGCACCGUGAGUUUGAUCUCGAGAUGAUCAUGUUUGAGCGAUGUAAAGUGCCCAAGAUCCUGCACCCAUAUCUUGGAACUUAUCUUUGUUCUACAUCAUUCUCUCUUGUGGAAUUCUCGGGUGCCAA	0.453

Series 4 — target: CCNA1, cyclin fold, Cln2 fusion (human); technique: yeast growth competition, sequencing; medium: yeast; setting: weak parent motif; reference: not given; reading: higher = stronger binding
Starting sequence: RBL1 docking peptide (human); GSAKRRLFGEDPP
Change	normalised enrichment score
L7F	0.389
F8E	0.0508
E10D	0.658
R5V	0.337
E10Y	0.401
A3N	-0.122
L7R	0.0116
D11W	0.428
R6I	0.0896
A3D	-0.154
G9L	0.762
R5D	0.417
R5W	0.000749
S2D	0.181
R5Q	0.208
K4H	0.249
S2W	0.241
A3Y	0.274
G1Q	0.501

A few entries again (series 2):
Modification	mean fluorescence intensity
2'F-ANA at 3 4 5 6 7 8 11 14 15	53.6 a.u.
2'F-ANA at 1 6 7 8 10 11 13 14 15	53.7 a.u.
2'F-ANA at 1 2 4 5 6 8 10 11 12 14 15	75.7 a.u.
2'F-ANA at 1 4 5	60.6 a.u.
2'F-ANA at 2 3 4 5 6 7 8 10 11 12 13 14 15	52.8 a.u.
2'F-ANA at 2 3 4 6 9 10 13 14	149 a.u.
2'F-ANA at 3 7 15	1150 a.u.
2'F-ANA at 1 2 3 4 5 7 11 12 13	70.7 a.u.
2'F-ANA at 1 3 4 11 13 14	69.1 a.u.
